{"data": "Measured values pooled from the literature", "note": "Every numbered part comes from another study and shows a few of its results, in no order. Substitutions count along the parent as printed."}
{"data": "Sample 1", "target": "Histone acetyltransferase KAT6A, winged helix 2, GST fusion (KAT6A, Homo sapiens, UniProt Q92794, residues 85-181)", "technique": "protein binding microarray", "molecule type": "double-stranded DNA, one strand shown", "medium": "in vitro", "tested at": "not given", "setting": "8-mer, flanks averaged, mean of 2 arrays, mostly near background", "relative to": "not given", "direction": "higher = stronger binding", "Target sequence (chain)": "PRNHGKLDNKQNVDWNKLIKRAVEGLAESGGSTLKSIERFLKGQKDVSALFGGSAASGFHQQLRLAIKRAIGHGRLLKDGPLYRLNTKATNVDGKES"}
{"Strand": "ATATTCCA", "E-score": 0.113}
{"Strand": "CTCTTTAA", "E-score": 0.0147}
{"Strand": "AGGACCAA", "E-score": -0.0697}
{"Strand": "AACCCGTT", "E-score": -0.149}
{"Strand": "CACAGAAA", "E-score": 0.165}
{"Strand": "ATCACGCA", "E-score": 0.154}
{"Strand": "CCGATCCG", "E-score": 0.115}
{"Strand": "AAGAACTC", "E-score": 0.0913}
{"Strand": "ACGTTCTG", "E-score": -0.0143}
{"Strand": "CGCTGATC", "E-score": 0.0688}
{"Strand": "GTGTCCCA", "E-score": 0.114}
{"Strand": "AGTTTAGC", "E-score": 0.0628}
{"Strand": "CGAAGATC", "E-score": -0.0481}
{"Strand": "GATCAAAC", "E-score": -0.074}
{"Strand": "TCTTAGCA", "E-score": 0.043}
{"Strand": "CTTTTGCA", "E-score": 0.116}
{"Strand": "CTACATCA", "E-score": -0.171}
{"Strand": "GACCGTCC", "E-score": 0.056}
{"Strand": "AAATCTAT", "E-score": 0.178}
{"Strand": "GACGGTGA", "E-score": -0.0657}
{"Strand": "ACTTAGGC", "E-score": -0.0231}
{"Strand": "GTTAATCA", "E-score": 0.163}
{"data": "Sample 2", "target": "Centromere-binding protein 1, full length, His-tagged (CBF1, Saccharomyces cerevisiae, UniProt P17106, residues 1-351)", "technique": "competition protein-binding microarray", "molecule type": "double-stranded DNA, one strand shown", "medium": "in vitro", "tested at": "2 µM", "setting": "whole 60-bp probe, lowest competitor level", "added": "Pho4 competitor, 0.05 µM", "direction": "higher = stronger binding", "all sequences stand within": "… GTCTTGATTCGCTTGACGCTGCTG", "sequence of UniProt P17106 (whole entry, looked up)": "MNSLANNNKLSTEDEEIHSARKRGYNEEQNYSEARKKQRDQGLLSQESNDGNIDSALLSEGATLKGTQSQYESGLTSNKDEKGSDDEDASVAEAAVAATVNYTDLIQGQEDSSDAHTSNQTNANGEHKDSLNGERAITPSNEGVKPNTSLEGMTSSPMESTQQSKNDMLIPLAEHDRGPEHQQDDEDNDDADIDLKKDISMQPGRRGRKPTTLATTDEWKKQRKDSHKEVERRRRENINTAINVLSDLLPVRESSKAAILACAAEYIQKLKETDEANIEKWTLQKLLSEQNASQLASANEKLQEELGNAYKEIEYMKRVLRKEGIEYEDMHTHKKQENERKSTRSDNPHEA"}
{"Strand": "ATGAGAAGCGCAAATGTCGTGATGGCAATAGCCCGG", "fluorescence intensity [a.u.]": 98.4}
{"Strand": "GATTCAGATCTGAGACTTGGGTAGCATTTGACAGAC", "fluorescence intensity [a.u.]": 80.9}
{"Strand": "TGGCAACAGAGAAAGCACGCTTGTAGAACCAACCTT", "fluorescence intensity [a.u.]": 63.1}
{"Strand": "CTTTCCCGATCTTGTGGAGTGGGTGTAGCACATTTG", "fluorescence intensity [a.u.]": 67.1}
{"Strand": "TTTTTCTACAAAATGCACATGACAGGATGACCTTCC", "fluorescence intensity [a.u.]": 411}
{"Strand": "CATACCCAACCTTGTCACGACACTTAAGATATTTGT", "fluorescence intensity [a.u.]": 233}
{"Strand": "TTCAACGCATTGAGACACATGGCTAACTACCCAGTA", "fluorescence intensity [a.u.]": 79.1}
{"Strand": "CTTTCCCGATCTTTTCACGTGTGGTTAGCACATTTG", "fluorescence intensity [a.u.]": 605}
{"Strand": "GTAAATGCCGCCCATCACGTGGTGAAGAAAAGAAAC", "fluorescence intensity [a.u.]": 4900}
{"Strand": "CATACCCAACCTTGTCACGGTACTTAAGATATTTGT", "fluorescence intensity [a.u.]": 227}
{"Strand": "AAATTACTAAGTTGCCTAGTGGGTGACGCCGTATGA", "fluorescence intensity [a.u.]": 50.2}
{"Strand": "CGTCCTAGTGATTGTCACGGGACTTCCATGAGGAAG", "fluorescence intensity [a.u.]": 1340}
{"Strand": "ATGATGACAGGATAGCATGTGCTTTTCGACGGCTGA", "fluorescence intensity [a.u.]": 122}
{"Strand": "GCCTCCGTCTCTTCCACTGTGCAGGGCGCTAGCTCA", "fluorescence intensity [a.u.]": 42.7}
{"Strand": "CTTCTGTAAATTTTTCACGTGTAATGACGCGCCCCG", "fluorescence intensity [a.u.]": 773}
{"data": "Sample 3", "target": "Interferon regulatory factor 5, full length, phosphomimetic (IRF5, Homo sapiens, UniProt Q13568-2, residues 1-514, K96S/S451D/S453D/S456D/S462D)", "technique": "protein-binding microarray", "molecule type": "double-stranded DNA, one strand shown", "medium": "in vitro", "tested at": "250 nM", "setting": "60-bp whole probe", "added": "salmon DNA 0.4 mg/ml", "relative to": "random background probes", "direction": "higher = stronger binding", "all sequences stand within": "GCCTAGCAC … GTCTTGATTCGCTTGACGCTGCTG"}
{"Strand": "TTGAACTTCGGCCTCTAGGTGTGCTAG", "log fluorescence [z-score]": 0.0332}
{"Strand": "GACGAACTGCGTATCGAGACGTGCTAG", "log fluorescence [z-score]": 0.449}
{"Strand": "CTTGTGCTCCTTTTAATTTTGTGCTAG", "log fluorescence [z-score]": 0.22}
{"Strand": "TTAGGACTGGGACTGGGTGAGTGCTAG", "log fluorescence [z-score]": -0.685}
{"Strand": "GCCACCGGTCTCCATGGGTCGTGCTAG", "log fluorescence [z-score]": -0.676}
{"Strand": "TTAGGTTTCTACACTGGGTTAGTGCTA", "log fluorescence [z-score]": 1.24}
{"Strand": "TTAGGTTTCGACACTAGGTTAGTGCTA", "log fluorescence [z-score]": 6.01}
{"Strand": "GTCCTCCTCTCTCTTTCCACGTGCTAG", "log fluorescence [z-score]": 0.33}
{"Strand": "TCATATTCAGGTATATAACTGTGCTAG", "log fluorescence [z-score]": 0.524}
{"Strand": "GACGGTATCTACACTGGGGACGTGCTA", "log fluorescence [z-score]": -0.0642}
{"Strand": "TTAGGTCTCGGAGTGGGTTAGTGCTAG", "log fluorescence [z-score]": -0.148}
{"data": "Sample 4", "target": "Sal-like protein 4, full length isoform A (SALL4, Homo sapiens, UniProt Q9UJQ4, residues 1-1053)", "technique": "universal PBM", "molecule type": "double-stranded DNA, one strand shown", "medium": "in vitro", "tested at": "600 nM", "setting": "8-mer, flanks averaged, mean of replicates", "direction": "higher = stronger binding", "sequence of UniProt Q9UJQ4 (whole entry, looked up)": "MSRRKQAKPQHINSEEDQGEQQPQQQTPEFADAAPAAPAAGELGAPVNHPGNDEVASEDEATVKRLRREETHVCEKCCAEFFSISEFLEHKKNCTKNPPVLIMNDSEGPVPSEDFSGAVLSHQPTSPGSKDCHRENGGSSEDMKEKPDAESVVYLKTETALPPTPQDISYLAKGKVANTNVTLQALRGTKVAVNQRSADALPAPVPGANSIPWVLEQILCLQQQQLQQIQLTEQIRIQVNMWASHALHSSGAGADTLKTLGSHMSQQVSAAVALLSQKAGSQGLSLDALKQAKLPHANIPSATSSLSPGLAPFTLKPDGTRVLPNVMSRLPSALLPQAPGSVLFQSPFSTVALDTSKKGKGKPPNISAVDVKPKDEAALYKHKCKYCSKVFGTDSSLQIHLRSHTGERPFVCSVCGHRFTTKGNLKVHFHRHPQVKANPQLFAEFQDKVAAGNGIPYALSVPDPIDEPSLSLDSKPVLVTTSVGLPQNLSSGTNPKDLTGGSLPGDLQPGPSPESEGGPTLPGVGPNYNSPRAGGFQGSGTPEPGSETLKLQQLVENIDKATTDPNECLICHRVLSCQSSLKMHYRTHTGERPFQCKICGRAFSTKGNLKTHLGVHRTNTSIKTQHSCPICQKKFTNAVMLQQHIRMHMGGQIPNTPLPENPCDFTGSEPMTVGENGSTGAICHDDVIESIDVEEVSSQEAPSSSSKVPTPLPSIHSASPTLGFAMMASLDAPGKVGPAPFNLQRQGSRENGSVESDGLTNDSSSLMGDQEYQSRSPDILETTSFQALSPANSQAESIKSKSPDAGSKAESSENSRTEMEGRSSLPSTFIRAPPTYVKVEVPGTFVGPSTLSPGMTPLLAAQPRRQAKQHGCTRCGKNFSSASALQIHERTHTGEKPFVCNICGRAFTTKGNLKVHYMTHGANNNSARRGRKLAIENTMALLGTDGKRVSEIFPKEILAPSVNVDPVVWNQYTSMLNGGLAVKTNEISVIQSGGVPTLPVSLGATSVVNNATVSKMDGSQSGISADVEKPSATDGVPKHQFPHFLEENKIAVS"}
{"Strand": "CAGTATCG", "E-score": 0.103}
{"Strand": "GACAGGGC", "E-score": -0.283}
{"Strand": "AGTCGAGA", "E-score": 0.0946}
{"Strand": "CAGTCCTC", "E-score": -0.0746}
{"Strand": "ACGAGGGG", "E-score": -0.286}
{"Strand": "GCAGTGCA", "E-score": -0.146}
{"Strand": "CCTCGCCA", "E-score": -0.211}
{"Strand": "AGATGAAG", "E-score": 0.0668}
{"Strand": "AGGTGCAA", "E-score": -0.0675}
{"Strand": "ACGCTACG", "E-score": -0.0826}
{"Strand": "GACAGCTC", "E-score": -0.298}
{"Strand": "AGACGTGC", "E-score": -0.0977}
{"Strand": "TCAGCTGA", "E-score": 0.14}
{"Strand": "AGGGAAAG", "E-score": -0.0347}
{"Strand": "CAGTATTC", "E-score": 0.121}
{"Strand": "CACTCGCG", "E-score": -0.165}
{"Strand": "AGCGTTCA", "E-score": -0.124}
{"Strand": "GCGGGTTA", "E-score": -0.168}
{"Strand": "TCCATTCA", "E-score": 0.12}
{"Strand": "CCACTCGC", "E-score": -0.274}
{"data": "Sample 5", "target": "CCNA1, cyclin fold, Cln2 fusion (human)", "technique": "yeast growth competition, sequencing", "medium": "yeast", "setting": "weak parent motif", "relative to": "not given", "direction": "higher = stronger binding", "starting sequence": "RBL1 docking peptide (human); GSAKRRLFGEDPP"}
{"Change": "GSAKYRLFGEDPP [R5Y]", "normalised enrichment score": 0.324}
{"Change": "GSAKRRLFGEDQP [P12Q]", "normalised enrichment score": 0.305}
{"Change": "GSAKRCLFGEDPP [R6C]", "normalised enrichment score": 0.459}
{"Change": "GSAKRRLFGEDPR [P13R]", "normalised enrichment score": 0.664}
{"Change": "GSARRRLFGEDPP [K4R]", "normalised enrichment score": 1.26}
{"Change": "GSAKRHLFGEDPP [R6H]", "normalised enrichment score": 0.47}
{"Change": "GSAKRRLFGEDMP [P12M]", "normalised enrichment score": 0.388}
{"Change": "GSAKRTLFGEDPP [R6T]", "normalised enrichment score": 0.215}
{"Change": "GSAKPRLFGEDPP [R5P]", "normalised enrichment score": 0.224}
{"Change": "GSAKRRLFGQDPP [E10Q]", "normalised enrichment score": 0.163}
{"Change": "GSAKRRLFGEDFP [P12F]", "normalised enrichment score": 0.517}
{"Change": "GSAKRGLFGEDPP [R6G]", "normalised enrichment score": 0.0128}
{"Change": "GSAKRRLFFEDPP [G9F]", "normalised enrichment score": 0.954}
{"Change": "GSAKRRCFGEDPP [L7C]", "normalised enrichment score": 0.0443}
{"Change": "KSAKRRLFGEDPP [G1K]", "normalised enrichment score": 0.458}
{"Change": "GSADRRLFGEDPP [K4D]", "normalised enrichment score": 0.226}
{"Change": "GSAKGRLFGEDPP [R5G]", "normalised enrichment score": 0.1}
{"Change": "GCAKRRLFGEDPP [S2C]", "normalised enrichment score": 0.716}
{"Change": "GSAKRRLFGNDPP [E10N]", "normalised enrichment score": 0.746}
{"Change": "ISAKRRLFGEDPP [G1I]", "normalised enrichment score": 1.14}
{"Change": "GSALRRLFGEDPP [K4L]", "normalised enrichment score": 0.271}
{"Change": "VSAKRRLFGEDPP [G1V]", "normalised enrichment score": 0.849}
{"Change": "GSAKRRLFGEDKP [P12K]", "normalised enrichment score": 0.7}
{"Change": "GSAKRRLFGEDWP [P12W]", "normalised enrichment score": 0.481}
{"data": "Sample 6", "target": "PABPC1L2, full length, GST fusion (mouse, UniProt A0ABA7IW68)", "technique": "RNAcompete", "molecule type": "RNA", "medium": "in vitro", "tested at": "20 nM", "setting": "7-mer, probes averaged, single round", "relative to": "mean of 7-mers", "direction": "higher = stronger binding", "Target sequence (chain)": "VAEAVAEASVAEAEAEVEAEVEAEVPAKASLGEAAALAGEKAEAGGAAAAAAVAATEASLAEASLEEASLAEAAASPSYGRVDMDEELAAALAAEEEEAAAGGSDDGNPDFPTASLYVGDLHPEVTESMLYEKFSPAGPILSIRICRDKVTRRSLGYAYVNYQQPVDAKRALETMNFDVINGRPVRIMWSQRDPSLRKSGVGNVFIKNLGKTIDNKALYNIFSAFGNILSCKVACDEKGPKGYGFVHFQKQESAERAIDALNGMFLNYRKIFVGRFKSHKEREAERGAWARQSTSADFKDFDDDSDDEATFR"}
{"Strand": "GCAGUAA", "7-mer Z-score": 0.254}
{"Strand": "GAGAAGG", "7-mer Z-score": 0.12}
{"Strand": "AGUGGCU", "7-mer Z-score": 0.113}
{"Strand": "CGAGCUA", "7-mer Z-score": -0.0391}
{"Strand": "UCCGCCU", "7-mer Z-score": -0.42}
{"Strand": "UCCCGAA", "7-mer Z-score": -0.0899}
{"Strand": "AUUGGGU", "7-mer Z-score": 0.184}
{"Strand": "AAACUGC", "7-mer Z-score": 1.09}
{"Strand": "UAUGGCU", "7-mer Z-score": 0.0152}
{"Strand": "GGUGAGA", "7-mer Z-score": -0.00833}
{"Strand": "ACGUCGU", "7-mer Z-score": -0.329}
{"Strand": "AUUCCAG", "7-mer Z-score": -0.0174}
{"Strand": "AAGGCGG", "7-mer Z-score": 0.341}
{"Strand": "ACUUUCA", "7-mer Z-score": -0.108}
{"Strand": "UCCAUAU", "7-mer Z-score": -0.298}
{"Strand": "GGAAACU", "7-mer Z-score": -0.121}
{"Strand": "CAUAAAC", "7-mer Z-score": 2.19}
{"Strand": "GUCUGAC", "7-mer Z-score": -0.344}
{"Strand": "UACAUCC", "7-mer Z-score": -0.306}
{"Strand": "GUGCAGC", "7-mer Z-score": -0.132}
{"note": "For quick reference, copied from above (sample 1):"}
{"Strand": "CACAGAAA", "E-score": 0.165}
{"Strand": "AGTTTAGC", "E-score": 0.0628}
{"Strand": "GTGTCCCA", "E-score": 0.114}
{"Strand": "CTCTTTAA", "E-score": 0.0147}
{"Strand": "GATCAAAC", "E-score": -0.074}
{"Strand": "CGCTGATC", "E-score": 0.0688}
{"Strand": "AACCCGTT", "E-score": -0.149}
{"Strand": "CTTTTGCA", "E-score": 0.116}
{"Strand": "ACGTTCTG", "E-score": -0.0143}
{"Strand": "AAATCTAT", "E-score": 0.178}
{"Strand": "CTACATCA", "E-score": -0.171}
{"Strand": "ACTTAGGC", "E-score": -0.0231}
{"Strand": "AGGACCAA", "E-score": -0.0697}
{"Strand": "GTTAATCA", "E-score": 0.163}
{"Strand": "TCTTAGCA", "E-score": 0.043}
{"Strand": "CGAAGATC", "E-score": -0.0481}
{"Strand": "GACGGTGA", "E-score": -0.0657}
